{"data": "Measurements gathered from unrelated publications", "note": "Every numbered part comes from another study and shows a few of its results, in no order. “And” joins repeats or separate records; there may be more than shown.", "UniProt P54764, sequence (whole entry, looked up)": "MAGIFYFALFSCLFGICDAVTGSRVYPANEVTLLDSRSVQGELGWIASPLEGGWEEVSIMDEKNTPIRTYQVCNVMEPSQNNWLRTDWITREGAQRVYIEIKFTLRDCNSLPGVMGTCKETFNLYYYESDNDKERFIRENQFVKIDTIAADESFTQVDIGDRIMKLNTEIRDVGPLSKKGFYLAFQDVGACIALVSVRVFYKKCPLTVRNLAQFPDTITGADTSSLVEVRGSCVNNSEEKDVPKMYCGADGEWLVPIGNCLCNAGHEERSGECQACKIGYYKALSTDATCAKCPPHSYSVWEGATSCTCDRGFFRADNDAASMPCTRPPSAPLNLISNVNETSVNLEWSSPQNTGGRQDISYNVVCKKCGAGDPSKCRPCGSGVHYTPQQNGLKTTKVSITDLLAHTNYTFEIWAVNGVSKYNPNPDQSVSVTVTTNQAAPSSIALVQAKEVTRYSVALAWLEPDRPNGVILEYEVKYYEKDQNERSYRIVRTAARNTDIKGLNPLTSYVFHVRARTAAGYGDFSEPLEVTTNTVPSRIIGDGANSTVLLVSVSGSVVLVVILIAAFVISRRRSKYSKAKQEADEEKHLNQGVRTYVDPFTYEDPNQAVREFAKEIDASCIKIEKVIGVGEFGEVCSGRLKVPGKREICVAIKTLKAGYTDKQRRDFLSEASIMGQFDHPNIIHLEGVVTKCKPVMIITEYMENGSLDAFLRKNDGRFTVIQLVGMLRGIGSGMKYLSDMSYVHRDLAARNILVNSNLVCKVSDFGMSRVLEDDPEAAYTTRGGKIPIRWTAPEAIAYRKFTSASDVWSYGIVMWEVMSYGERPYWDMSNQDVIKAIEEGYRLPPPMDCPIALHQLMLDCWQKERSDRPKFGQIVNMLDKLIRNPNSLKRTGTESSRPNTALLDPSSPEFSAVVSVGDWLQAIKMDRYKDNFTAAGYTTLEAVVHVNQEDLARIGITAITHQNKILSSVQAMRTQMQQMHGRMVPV", "UniProt O75582, sequence (whole entry, looked up)": "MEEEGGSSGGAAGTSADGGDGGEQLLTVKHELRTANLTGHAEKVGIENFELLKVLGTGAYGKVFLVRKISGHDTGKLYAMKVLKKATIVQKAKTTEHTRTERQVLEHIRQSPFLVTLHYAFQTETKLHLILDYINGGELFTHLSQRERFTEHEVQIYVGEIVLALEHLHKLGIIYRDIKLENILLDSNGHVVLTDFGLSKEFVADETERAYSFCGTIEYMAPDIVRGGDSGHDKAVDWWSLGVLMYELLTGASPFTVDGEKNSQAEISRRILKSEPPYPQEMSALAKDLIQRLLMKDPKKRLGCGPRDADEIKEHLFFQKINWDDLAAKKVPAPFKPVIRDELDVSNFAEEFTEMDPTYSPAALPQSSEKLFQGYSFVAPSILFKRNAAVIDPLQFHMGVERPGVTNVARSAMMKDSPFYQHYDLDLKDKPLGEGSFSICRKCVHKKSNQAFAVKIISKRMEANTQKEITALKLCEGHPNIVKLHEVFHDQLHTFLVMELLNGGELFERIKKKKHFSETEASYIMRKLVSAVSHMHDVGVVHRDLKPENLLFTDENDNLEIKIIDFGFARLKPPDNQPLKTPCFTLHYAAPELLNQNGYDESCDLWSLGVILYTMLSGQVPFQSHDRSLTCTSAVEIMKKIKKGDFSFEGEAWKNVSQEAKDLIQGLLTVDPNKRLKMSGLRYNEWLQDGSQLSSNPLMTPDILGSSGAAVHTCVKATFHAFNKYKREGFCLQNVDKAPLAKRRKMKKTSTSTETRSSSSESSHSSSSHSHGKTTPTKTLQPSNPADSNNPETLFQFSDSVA", "UniProt Q13470, sequence (whole entry, looked up)": "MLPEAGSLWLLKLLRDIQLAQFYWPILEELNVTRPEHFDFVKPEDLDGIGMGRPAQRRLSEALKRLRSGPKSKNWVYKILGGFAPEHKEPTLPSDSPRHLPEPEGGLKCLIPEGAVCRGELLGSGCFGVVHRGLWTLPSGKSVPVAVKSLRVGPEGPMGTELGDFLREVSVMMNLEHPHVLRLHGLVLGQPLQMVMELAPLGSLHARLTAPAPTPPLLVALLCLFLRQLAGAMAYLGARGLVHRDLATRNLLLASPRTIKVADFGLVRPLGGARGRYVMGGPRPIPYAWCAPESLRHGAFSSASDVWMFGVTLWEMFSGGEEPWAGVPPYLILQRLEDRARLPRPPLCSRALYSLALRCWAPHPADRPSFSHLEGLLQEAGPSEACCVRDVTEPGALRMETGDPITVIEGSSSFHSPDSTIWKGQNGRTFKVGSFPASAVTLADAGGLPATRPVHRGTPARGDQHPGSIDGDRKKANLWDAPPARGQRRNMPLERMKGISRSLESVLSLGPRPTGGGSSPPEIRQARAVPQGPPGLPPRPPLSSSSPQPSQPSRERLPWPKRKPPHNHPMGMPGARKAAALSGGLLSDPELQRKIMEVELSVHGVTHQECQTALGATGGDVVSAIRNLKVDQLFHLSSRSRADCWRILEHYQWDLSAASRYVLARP", "UniProt P31749, sequence (whole entry, looked up)": "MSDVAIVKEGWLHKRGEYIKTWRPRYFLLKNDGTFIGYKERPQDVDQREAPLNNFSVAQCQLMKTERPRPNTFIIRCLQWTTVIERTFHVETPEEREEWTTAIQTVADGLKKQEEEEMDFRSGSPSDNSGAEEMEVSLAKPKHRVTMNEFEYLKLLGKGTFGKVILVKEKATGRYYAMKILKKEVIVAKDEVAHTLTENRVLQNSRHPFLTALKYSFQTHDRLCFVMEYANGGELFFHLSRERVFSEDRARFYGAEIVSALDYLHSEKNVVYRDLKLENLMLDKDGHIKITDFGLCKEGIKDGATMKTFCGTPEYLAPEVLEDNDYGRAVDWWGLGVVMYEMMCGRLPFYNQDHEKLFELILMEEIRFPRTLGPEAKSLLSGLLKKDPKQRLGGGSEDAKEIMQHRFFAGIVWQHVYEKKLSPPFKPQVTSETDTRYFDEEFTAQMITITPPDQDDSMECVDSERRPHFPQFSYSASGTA", "UniProt Q9BYP7, sequence (whole entry, looked up)": "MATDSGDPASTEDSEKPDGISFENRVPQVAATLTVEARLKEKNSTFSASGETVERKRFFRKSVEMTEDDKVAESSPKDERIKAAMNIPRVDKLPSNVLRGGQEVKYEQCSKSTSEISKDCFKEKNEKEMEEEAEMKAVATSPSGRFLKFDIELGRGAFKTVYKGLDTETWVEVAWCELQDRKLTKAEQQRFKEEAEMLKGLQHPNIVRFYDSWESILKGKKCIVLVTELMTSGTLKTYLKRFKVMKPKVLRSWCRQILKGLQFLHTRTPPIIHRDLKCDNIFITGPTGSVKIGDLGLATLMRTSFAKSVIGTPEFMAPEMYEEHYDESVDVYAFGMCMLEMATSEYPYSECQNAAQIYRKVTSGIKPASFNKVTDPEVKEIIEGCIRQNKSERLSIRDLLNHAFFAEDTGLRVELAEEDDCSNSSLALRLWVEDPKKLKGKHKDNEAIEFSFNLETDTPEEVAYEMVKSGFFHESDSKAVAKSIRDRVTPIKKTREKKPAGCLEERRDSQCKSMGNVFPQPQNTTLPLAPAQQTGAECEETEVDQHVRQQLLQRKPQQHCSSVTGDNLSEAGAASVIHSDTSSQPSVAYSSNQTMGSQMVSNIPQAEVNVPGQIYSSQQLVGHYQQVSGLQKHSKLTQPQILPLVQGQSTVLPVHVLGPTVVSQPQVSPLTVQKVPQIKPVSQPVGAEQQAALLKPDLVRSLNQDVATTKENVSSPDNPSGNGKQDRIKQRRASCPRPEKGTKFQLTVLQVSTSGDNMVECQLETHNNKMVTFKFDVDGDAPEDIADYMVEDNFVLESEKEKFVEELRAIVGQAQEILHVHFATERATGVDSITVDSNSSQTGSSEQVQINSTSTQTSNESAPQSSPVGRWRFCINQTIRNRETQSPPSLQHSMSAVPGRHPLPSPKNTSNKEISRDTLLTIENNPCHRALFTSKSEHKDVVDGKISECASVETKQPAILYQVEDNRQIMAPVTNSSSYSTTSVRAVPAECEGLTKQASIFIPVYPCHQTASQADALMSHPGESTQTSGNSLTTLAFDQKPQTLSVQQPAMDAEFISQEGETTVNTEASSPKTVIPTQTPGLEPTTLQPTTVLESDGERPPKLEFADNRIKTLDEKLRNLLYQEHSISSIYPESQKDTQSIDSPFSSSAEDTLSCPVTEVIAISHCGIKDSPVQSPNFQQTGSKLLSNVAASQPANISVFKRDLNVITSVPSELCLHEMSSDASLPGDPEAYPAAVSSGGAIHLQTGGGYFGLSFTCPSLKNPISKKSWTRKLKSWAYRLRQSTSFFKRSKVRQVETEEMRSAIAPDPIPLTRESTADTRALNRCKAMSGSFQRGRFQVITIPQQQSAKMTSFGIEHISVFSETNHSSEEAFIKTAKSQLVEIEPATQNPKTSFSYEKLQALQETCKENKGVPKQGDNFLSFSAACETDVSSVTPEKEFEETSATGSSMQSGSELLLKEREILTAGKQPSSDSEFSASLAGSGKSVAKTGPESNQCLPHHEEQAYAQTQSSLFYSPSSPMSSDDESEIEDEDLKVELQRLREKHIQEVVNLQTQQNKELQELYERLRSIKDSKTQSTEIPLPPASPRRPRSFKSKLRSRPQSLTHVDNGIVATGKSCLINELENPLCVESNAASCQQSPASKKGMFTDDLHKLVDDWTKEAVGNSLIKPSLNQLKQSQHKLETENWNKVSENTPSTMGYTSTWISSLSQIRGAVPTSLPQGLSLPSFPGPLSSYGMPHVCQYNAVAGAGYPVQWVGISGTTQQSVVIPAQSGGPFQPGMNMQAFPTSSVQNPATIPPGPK", "UniProt P22612, sequence (whole entry, looked up)": "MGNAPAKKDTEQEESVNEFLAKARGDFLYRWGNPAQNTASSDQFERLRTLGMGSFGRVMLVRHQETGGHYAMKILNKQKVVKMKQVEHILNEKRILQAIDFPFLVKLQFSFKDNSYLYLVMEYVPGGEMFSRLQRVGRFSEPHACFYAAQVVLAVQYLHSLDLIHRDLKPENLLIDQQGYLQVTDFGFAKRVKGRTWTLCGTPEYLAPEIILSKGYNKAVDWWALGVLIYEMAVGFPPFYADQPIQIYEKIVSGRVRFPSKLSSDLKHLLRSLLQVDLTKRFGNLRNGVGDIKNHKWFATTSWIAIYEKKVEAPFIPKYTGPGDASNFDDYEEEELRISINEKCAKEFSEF"}
{"data": "Block 1", "SMILES": "CN([C@@H]1CCc2c(CC(=O)O)c3ccccc3n2C1)S(=O)(=O)c1ccc(F)cc1", "read-out": "cell-free assay", "technique": "competition with immobilised ligand", "tested at": "1 µM"}
{"target": "YES1 (Homo sapiens, UniProt P07947)", "remaining binding": "100%"}
{"target": "Ribosomal protein S6 kinase alpha-4, C-terminal kinase domain (RPS6KA4, Homo sapiens, UniProt O75676)", "remaining binding": "96%"}
{"target": "DDR1 (Homo sapiens, UniProt Q08345)", "remaining binding": "78%"}
{"target": "Tyrosine-protein kinase ABL1, phosphorylated (ABL1, Homo sapiens, UniProt P00519, M351T)", "remaining binding": "100%"}
{"target": "STK4 (Homo sapiens, UniProt Q13043)", "remaining binding": "98%"}
{"target": "STK38 (Homo sapiens, UniProt Q15208)", "remaining binding": "100%"}
{"target": "PRKG1 (Homo sapiens, UniProt Q13976)", "remaining binding": "100%"}
{"target": "SBK3 (Homo sapiens, UniProt P0C264)", "remaining binding": "100%"}
{"target": "ERBB3 (Homo sapiens, UniProt P21860)", "remaining binding": "100%"}
{"target": "CDKL5 (Homo sapiens, UniProt O76039)", "remaining binding": "74%"}
{"target": "TNK1 (Homo sapiens, UniProt Q13470)", "remaining binding": "99%"}
{"target": "CSNK1A1 (Homo sapiens, UniProt P48729)", "remaining binding": "80%"}
{"target": "FGFR4 (Homo sapiens, UniProt P22455)", "remaining binding": "91%"}
{"target": "AKT1 (Homo sapiens, UniProt P31749)", "remaining binding": "100%"}
{"data": "Block 2", "Compound": "Nc1nccc(-c2c(-c3ccc(F)cc3)ncn2C2CCNCC2)n1", "read-out": "enzyme activity", "action": "inhibitor", "tested at": "0.5 µM", "baseline": "control"}
{"target": "EPHB1 (Homo sapiens, UniProt P54762)", "remaining activity": "99.9%"}
{"target": "TSSK2 (Homo sapiens, UniProt Q96PF2)", "remaining activity": "100%"}
{"target": "Cyclin-dependent kinase 1, with cyclin B (CDK1, Homo sapiens, UniProt P06493)", "remaining activity": "96.8%"}
{"target": "Cyclin-dependent kinase 6, with cyclin D3 (CDK6, Homo sapiens, UniProt Q00534)", "remaining activity": "95.5%"}
{"target": "CAMK2B (Homo sapiens, UniProt Q13554)", "remaining activity": "97.7%"}
{"target": "PRKACG (Homo sapiens, UniProt P22612)", "remaining activity": "105%"}
{"target": "EPHB4 (Homo sapiens, UniProt P54760)", "remaining activity": "91.5%"}
{"target": "RPS6KA5 (Homo sapiens, UniProt O75582)", "remaining activity": "97.9%"}
{"target": "MAPKAPK3 (Homo sapiens, UniProt Q16644)", "remaining activity": "99.4%"}
{"target": "SRMS (Homo sapiens, UniProt Q9H3Y6)", "remaining activity": "97.5%"}
{"target": "Cyclin-dependent kinase 4, with cyclin D3 (CDK4, Homo sapiens, UniProt P11802)", "remaining activity": "104%"}
{"target": "DYRK3 (Homo sapiens, UniProt O43781)", "remaining activity": "96%"}
{"target": "STK16 (Homo sapiens, UniProt O75716)", "remaining activity": "108%"}
{"target": "STK17A (Homo sapiens, UniProt Q9UEE5)", "remaining activity": "97.8%"}
{"target": "PHKG1 (Homo sapiens, UniProt Q16816)", "remaining activity": "98.3%"}
{"target": "ABL1 (Homo sapiens, UniProt P00519)", "remaining activity": "101%"}
{"target": "RPS6KA6 (Homo sapiens, UniProt Q9UK32)", "remaining activity": "109%"}
{"target": "HIPK2 (Homo sapiens, UniProt Q9H2X6)", "remaining activity": "106%"}
{"target": "EPHA4 (Homo sapiens, UniProt P54764)", "remaining activity": "99.8%"}
{"target": "BLK (Homo sapiens, UniProt P51451)", "remaining activity": "102%"}
{"target": "HIPK4 (Homo sapiens, UniProt Q8NE63)", "remaining activity": "96.6%"}
{"target": "WNK3 (Homo sapiens, UniProt Q9BYP7)", "remaining activity": "95.3%"}
{"target": "MAP4K4 (Homo sapiens, UniProt O95819)", "remaining activity": "76.3%"}
{"target": "PDPK1 (Homo sapiens, UniProt O15530)", "remaining activity": "103%"}
{"data": "Block 3", "target": "Phosphate system positive regulatory protein PHO4, full length, GST-tagged (PHO4, Saccharomyces cerevisiae, UniProt P07270, residues 1-312)", "technique": "competition protein-binding microarray", "molecule type": "double-stranded DNA, one strand shown", "matrix": "in vitro", "tested at": "2 µM", "notes": "whole 60-bp probe, lowest competitor level", "with": "Cbf1 competitor, 0.05 µM", "direction": "higher = stronger binding", "Construct (chain)": "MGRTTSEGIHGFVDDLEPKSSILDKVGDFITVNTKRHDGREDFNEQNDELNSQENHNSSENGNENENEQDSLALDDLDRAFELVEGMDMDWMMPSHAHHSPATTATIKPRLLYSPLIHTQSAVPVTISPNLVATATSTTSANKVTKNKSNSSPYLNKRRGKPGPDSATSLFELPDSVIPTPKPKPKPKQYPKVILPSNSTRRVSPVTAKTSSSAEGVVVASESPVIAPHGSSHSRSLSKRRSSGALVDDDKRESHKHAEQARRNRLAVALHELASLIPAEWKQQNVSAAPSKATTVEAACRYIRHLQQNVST"}
{"Oligonucleotide": "TCCGCGCCGTATGTGTGTGTGACAGTGGAGTTTGCAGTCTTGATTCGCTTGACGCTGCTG", "fluorescence intensity [a.u.]": 6450}
{"Oligonucleotide": "AAAGCGGTAATTTGCCGCGTGGGTGCAGATATCTATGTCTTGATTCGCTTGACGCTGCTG", "fluorescence intensity [a.u.]": 11000}
{"Oligonucleotide": "GTCTTGTCTCATTGTTTCGTGGGTGTCCCCACTTCAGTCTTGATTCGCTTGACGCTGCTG", "fluorescence intensity [a.u.]": 6560}
{"Oligonucleotide": "TGTCTCCACAGTACCAACGTGCGATATCTGCTTCTCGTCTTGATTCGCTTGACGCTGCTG", "fluorescence intensity [a.u.]": 12200}
{"Oligonucleotide": "CTTCTGTAAATTTTTCACGTGAGGTGAAGCGCCCCGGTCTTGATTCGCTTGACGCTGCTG", "fluorescence intensity [a.u.]": 10300}
{"Oligonucleotide": "ACCCTTTTTCCTTGCCACGTTTTCACTCAGATCTAAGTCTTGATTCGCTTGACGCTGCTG", "fluorescence intensity [a.u.]": 13500}
{"Oligonucleotide": "ATTAAGAGAAGGAAGAGCGTGCTAAGCAGGTTCTTCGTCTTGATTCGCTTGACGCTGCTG", "fluorescence intensity [a.u.]": 8990}
{"Oligonucleotide": "CGTCAATTAAAATGTTACGTGAGATGGGTTAAATACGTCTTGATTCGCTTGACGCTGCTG", "fluorescence intensity [a.u.]": 4710}
{"data": "Block 4", "cell line": "A-375", "tested at": "100 µM", "time": "18 h"}
{"SMILES": "Cc1ccsc1C(=CCCN1CCC[C@@H](C(=O)O)C1)c1sccc1C", "viability [%]": 102}
{"SMILES": "CCN(CC)CCOCCOC(=O)C(CC)(CC)c1ccccc1", "viability [%]": 83.7}
{"SMILES": "CC(=O)SCC(Cc1ccccc1)C(=O)NCC(=O)OCc1ccccc1 (stereo not shown)", "viability [%]": 110}
{"SMILES": "CN(C)c1cc(NC(=O)CNC(C)(C)C)c(O)c2c1C[C@H]1C[C@H]3[C@H](N(C)C)C(O)=C(C(N)=O)C(=O)[C@@]3(O)C(O)=C1C2=O", "viability [%]": 97.6}
{"data": "Mixed results"}
{"SMILES": "CN1CC[C@H](c2c(O)cc(O)c3c(=O)cc(-c4ccccc4Cl)oc23)[C@H](O)C1", "tested on": "HuT78", "test": "trypan blue exclusion", "setting": "0.05 µM, 48 h", "scale": "baseline: untreated", "endpoint": "viability", "value": "87.6% and 89.2%"}
{"SMILES": "C[C@@H]1CN(c2ccc(-c3cc(C(=O)NCCOCCOCCOCCOCCNC(=O)Cn4cc(-c5[nH]cc(C(=O)N[C@@H](CC(N)=O)c6ccc(F)c(Cl)c6)c5-c5ccc(Cl)cc5F)cn4)ccc3F)cc2NC(=O)c2c[nH]c(=O)cc2C(F)(F)F)C[C@H](C)N1C", "tested on": "DCAF1 (Homo sapiens, UniProt Q9Y4B6)", "test": "SPR", "endpoint": "Kd", "value": "47.9 nM"}
